Assay results pooled from the literature.
Protocols differ between the studies behind these lines. “And” joins repeats or separate records; there may be more than shown. ± gives the spread as reported.
T1: dsDNA; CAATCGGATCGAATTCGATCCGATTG
T2: DNA G4 bcl-2 G-quadruplex (Homo sapiens); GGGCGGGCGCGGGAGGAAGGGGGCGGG
T3: RNA repeat; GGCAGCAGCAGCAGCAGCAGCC
UniProt Q9UH17, sequence (whole entry, looked up): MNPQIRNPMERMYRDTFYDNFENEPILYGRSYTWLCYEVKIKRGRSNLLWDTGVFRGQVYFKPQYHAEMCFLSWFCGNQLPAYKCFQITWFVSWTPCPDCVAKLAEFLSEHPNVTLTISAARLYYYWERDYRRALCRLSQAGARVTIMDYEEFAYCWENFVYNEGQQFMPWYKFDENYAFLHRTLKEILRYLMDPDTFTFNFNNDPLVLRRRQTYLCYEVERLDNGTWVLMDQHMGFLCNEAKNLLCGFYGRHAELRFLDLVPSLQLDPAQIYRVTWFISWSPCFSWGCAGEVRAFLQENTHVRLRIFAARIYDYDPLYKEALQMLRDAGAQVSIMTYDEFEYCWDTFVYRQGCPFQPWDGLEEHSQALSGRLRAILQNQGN
UniProt O75762, sequence (whole entry, unmodified, looked up): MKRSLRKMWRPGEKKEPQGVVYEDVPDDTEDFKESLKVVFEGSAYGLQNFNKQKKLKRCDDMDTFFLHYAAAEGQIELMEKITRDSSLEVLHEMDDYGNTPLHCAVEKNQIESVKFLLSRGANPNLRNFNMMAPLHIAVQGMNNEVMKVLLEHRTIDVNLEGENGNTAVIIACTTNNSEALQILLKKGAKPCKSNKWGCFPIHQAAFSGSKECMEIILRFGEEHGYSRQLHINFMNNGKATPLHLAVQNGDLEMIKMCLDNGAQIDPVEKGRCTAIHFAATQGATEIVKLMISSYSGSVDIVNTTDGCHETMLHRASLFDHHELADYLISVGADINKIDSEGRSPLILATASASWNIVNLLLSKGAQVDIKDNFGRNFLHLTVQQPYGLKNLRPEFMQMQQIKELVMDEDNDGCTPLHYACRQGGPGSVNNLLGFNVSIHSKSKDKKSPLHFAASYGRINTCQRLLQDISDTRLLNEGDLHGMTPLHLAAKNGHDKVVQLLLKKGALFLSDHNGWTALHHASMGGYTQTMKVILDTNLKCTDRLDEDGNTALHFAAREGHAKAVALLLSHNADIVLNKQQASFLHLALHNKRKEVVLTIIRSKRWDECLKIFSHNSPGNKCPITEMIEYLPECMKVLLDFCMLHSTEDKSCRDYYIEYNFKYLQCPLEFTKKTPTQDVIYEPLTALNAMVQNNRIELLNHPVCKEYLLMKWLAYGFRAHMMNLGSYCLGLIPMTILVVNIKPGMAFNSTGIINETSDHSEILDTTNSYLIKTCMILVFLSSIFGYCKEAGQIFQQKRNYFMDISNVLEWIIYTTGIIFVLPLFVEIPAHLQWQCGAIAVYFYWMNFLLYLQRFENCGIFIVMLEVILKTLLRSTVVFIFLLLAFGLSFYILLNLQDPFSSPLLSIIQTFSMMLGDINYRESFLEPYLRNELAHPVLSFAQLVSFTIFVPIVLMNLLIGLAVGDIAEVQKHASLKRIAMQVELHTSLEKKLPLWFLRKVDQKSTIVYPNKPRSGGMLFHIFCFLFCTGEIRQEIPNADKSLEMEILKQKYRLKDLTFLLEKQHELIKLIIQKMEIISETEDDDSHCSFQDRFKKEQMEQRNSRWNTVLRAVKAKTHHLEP
UniProt P39748, sequence (whole entry, looked up): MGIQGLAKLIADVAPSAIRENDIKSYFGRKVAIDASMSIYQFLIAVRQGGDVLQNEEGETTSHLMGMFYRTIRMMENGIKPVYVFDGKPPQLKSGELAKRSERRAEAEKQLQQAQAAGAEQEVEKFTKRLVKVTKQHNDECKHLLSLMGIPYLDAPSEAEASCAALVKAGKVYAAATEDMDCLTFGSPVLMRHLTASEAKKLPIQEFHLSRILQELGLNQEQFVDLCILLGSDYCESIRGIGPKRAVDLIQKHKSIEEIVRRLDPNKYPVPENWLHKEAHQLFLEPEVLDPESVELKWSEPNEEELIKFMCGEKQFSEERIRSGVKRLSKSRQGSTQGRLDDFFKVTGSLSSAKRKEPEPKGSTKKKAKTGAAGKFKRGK
UniProt P29994, sequence (whole entry, looked up): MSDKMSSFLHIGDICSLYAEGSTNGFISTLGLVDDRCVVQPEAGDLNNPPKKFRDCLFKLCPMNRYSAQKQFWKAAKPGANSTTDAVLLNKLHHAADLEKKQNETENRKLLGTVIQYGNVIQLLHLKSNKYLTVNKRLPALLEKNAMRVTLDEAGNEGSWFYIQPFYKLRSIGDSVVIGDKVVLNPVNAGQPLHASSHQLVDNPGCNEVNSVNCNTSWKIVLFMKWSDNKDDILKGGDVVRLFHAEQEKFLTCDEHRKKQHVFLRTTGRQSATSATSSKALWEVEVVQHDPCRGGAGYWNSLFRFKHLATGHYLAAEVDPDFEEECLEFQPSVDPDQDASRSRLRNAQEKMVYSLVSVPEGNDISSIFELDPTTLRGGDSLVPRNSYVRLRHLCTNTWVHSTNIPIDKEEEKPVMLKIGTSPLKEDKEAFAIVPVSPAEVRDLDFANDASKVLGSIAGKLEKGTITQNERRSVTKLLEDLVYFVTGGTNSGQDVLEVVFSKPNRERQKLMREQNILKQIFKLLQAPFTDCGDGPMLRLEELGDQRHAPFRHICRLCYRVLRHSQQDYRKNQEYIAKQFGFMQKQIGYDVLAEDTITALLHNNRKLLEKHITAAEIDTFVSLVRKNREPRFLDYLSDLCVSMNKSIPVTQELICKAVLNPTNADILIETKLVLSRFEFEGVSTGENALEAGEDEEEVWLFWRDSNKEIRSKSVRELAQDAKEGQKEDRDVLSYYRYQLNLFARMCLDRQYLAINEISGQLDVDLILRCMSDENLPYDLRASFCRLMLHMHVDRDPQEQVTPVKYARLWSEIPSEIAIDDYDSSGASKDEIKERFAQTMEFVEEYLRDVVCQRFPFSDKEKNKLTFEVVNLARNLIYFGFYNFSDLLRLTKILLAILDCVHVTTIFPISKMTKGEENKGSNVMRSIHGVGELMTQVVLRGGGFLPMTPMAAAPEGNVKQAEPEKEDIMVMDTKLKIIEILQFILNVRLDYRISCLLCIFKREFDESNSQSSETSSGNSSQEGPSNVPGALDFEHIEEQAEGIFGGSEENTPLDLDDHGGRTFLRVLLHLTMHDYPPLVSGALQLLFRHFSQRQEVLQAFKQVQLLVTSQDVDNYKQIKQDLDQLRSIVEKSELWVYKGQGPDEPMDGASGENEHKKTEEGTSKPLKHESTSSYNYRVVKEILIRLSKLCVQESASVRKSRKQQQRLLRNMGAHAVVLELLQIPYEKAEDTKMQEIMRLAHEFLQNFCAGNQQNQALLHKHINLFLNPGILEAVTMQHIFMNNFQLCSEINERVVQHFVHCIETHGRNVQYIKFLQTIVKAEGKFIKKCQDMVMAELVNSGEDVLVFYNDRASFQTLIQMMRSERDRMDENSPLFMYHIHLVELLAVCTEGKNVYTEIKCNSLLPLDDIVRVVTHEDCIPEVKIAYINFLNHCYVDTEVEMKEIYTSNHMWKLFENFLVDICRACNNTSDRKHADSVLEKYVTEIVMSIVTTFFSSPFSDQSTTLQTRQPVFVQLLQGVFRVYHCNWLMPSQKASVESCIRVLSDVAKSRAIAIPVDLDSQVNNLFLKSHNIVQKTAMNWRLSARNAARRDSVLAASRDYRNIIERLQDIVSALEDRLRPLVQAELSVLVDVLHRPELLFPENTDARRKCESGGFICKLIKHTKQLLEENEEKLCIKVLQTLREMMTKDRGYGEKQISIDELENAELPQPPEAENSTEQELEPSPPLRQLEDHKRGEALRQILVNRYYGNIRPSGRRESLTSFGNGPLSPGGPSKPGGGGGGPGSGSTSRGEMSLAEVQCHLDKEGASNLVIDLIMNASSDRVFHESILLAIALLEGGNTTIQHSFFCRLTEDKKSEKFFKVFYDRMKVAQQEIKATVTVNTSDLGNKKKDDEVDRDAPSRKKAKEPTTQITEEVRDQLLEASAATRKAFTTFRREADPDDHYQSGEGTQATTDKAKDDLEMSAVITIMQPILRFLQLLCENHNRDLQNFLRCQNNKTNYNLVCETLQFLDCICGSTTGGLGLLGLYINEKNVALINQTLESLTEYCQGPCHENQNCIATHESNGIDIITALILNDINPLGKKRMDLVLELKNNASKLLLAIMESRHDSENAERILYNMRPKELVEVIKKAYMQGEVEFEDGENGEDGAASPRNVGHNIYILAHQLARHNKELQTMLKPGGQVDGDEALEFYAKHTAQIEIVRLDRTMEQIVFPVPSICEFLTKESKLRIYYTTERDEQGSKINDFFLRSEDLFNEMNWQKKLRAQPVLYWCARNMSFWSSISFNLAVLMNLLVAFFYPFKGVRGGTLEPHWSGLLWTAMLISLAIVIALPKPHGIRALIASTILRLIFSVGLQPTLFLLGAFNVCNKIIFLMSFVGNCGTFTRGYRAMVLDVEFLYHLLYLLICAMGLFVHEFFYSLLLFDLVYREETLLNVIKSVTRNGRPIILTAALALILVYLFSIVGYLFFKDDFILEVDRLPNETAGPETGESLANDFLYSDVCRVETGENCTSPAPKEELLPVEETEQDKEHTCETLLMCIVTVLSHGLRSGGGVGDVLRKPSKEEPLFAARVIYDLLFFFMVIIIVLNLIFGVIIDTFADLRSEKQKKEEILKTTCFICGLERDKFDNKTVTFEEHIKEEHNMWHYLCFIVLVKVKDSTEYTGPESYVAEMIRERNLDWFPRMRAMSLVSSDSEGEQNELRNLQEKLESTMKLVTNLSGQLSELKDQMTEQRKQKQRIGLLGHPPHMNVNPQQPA
UniProt P12004, sequence (whole entry, unmodified, looked up): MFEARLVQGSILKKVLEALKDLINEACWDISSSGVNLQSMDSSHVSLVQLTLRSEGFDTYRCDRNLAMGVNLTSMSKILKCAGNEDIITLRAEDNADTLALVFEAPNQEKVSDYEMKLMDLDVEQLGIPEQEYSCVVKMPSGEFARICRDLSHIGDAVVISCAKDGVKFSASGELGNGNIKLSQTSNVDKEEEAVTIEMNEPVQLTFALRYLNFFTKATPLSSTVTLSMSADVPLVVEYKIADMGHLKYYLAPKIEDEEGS
UniProt P51452, sequence (whole entry, looked up): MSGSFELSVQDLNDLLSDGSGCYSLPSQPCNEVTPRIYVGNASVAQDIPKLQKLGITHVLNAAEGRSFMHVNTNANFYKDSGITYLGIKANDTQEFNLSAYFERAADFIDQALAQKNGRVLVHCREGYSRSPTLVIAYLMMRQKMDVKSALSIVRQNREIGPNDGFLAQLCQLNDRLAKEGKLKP

Structure (SMILES)	target	assay	test system	setting	scale	measurement	value
COc1cc(C2CC(=O)Nc3nc(N)[nH]c(=O)c32)ccc1O (stereo not shown)	uncharacterized protein (Leishmania donovani, UniProt A0A3Q8IA09)	Tyr fluorescence thermal shift		100 µM		melting temperature	65.8 °C
CCCC(=O)Nc1ccc(OC)nc1C	Carboxylesterase 3 (CES3, Homo sapiens, UniProt Q6UWW8)	substrate		50 µM, pH 8, 37 °C, enzyme purity 3%		specific activity	< 1 pmol/min/µg
O=C(O)CCc1ccc(O)cc1	p-hydroxyphenylacetate 3-hydroxylase, reductase component (C1-hpah, Acinetobacter baumannii, UniProt Q6Q271)	ITC		pH 7		ΔG	-5.13 ± 0.02 kcal/mol
C[n+]1c(C=Cc2ccc(N(c3ccccc3)c3ccccc3)cc2)cc(C=C2Sc3ccccc3N2CCCN2CCCC2)c2ccccc21	T1, dsDNA	competitor, fluorescence competition		pH 7.4, KCl 60 mM		binding	binds weakly
CC[C@H](C)[C@H](NC(=O)[C@H](CCC(=O)O)NC(=O)[C@H](CCC(=O)O)NC(=O)[C@H](Cc1ccccc1)NC(=O)[C@H](CCCCN)NC(=O)[C@@H]1CCCN1C(=O)[C@H](Cc1c[nH]cn1)NC(=O)[C@H](CCCCN)NC(=O)[C@H](CO)NC(=O)[C@H](CC(C)C)NC(=O)[C@H](Cc1c[nH]cn1)NC(C)=O)C(=O)N[C@@H](CC(C)C)C(=O)N[C@H](C(=O)N[C@@H](CCCNC(=N)N)C(=O)N[C@@H](CC(C)C)C(=O)N[C@@H](CCCNC(=N)N)C(=O)N[C@@H](CC(C)C)C(=O)N[C@@H](CCC(N)=O)C(N)=O)[C@@H](C)O	Calmodulin-1 (CALM1, Homo sapiens, UniProt P0DP23)	ITC	full-length calmodulin	concentration not given, together with: Ca2+		binding stoichiometry	2
CC[C@H](C)[C@H](NC(=O)[C@H](CCCCN)NC(=O)[C@H](CCCCN)NC(=O)[C@@H](NC(=O)[C@H](CCC(=O)O)NC(=O)[C@H](CCC(=O)O)NC(=O)[C@H](CCC(=O)O)NC(=O)[C@H](CO)NC(=O)[C@H](CC(C)C)NC(=O)[C@H](CC(=O)O)NC(=O)[C@H](CC(C)C)NC(=O)CNC(=O)[C@H](CCCNC(=N)N)NC(=O)[C@H](CC(C)C)NC(=O)[C@H](CO)NC(=O)CNC(=O)CNC(=O)CNC(=O)CCCC[C@@H]1SC[C@@H]2NC(=O)N[C@@H]21)C(C)C)C(=O)N[C@@H](CC(C)C)C(=O)N[C@@H](CC(=O)O)C(=O)N[C@@H](CCC(=O)O)C(=O)N[C@H](C(=O)N[C@H](C(=O)N[C@@H](CCCCN)C(=O)N[C@@H](CC(=O)O)C(=O)N1CCC[C@H]1C(=O)N[C@@H](C)C(=O)N[C@@H](CC(=O)O)C(=O)O)C(C)C)[C@@H](C)CC	Fab B11 antibody (human)	binding, biolayer interferometry			baseline: alanine mutant over wild type	Kd ratio	2.3
CC1=N/C(=C\c2cc3cc4c5c(c3oc2=O)CCCN5CCC4)C(=O)N1C	T2, DNA G4 bcl-2 G-quadruplex (Homo sapiens)	fluorescence titration		pH 7.4, K+ 100 mM		Kd	2.59 µM
C=C1C(=O)O[C@@H]2[C@H]3C(CO)=CC(=O)C3=C(C)C[C@H](OC(=O)Cc3ccc(O)cc3)[C@@H]12	MAL12 (Saccharomyces cerevisiae S288c, UniProt P53341)	fluorescence quenching		310 K		Stern-Volmer constant	9110 L/mol
CC(C)CN(CC(C)C)C(=O)/C=C/C=C/c1ccc2c(c1)OCO2	Gabra2/Gabrb2 (Rattus norvegicus, UniProt P23576+P63138)	GABA current potentiation, positive modulator, two-electrode voltage clamp	Xenopus oocytes expressing α2β2	together with: GABA EC3-7		Hill coefficient	1.1 ± 0.3
CC1=CCCN(c2ncc(C(F)F)cn2)C1	DUSP3 (Homo sapiens, UniProt P51452)	ligand-observed 19F NMR		concentration not given, together with: DUSP3 4 or 8 µM		binding	active
Cc1c(NC(=O)CC(C)C)c(=O)n(-c2ccccc2)n1C	3-oxoacyl-[acyl-carrier-protein] synthase 2 (Pseudomonas aeruginosa, UniProt O54440)	bio-layer interferometry		up to 2.5 mM, outcome: no binding		binding	no binding
O=C(Cn1c2ccccc2c2ccncc21)N(c1ccc(F)cc1)c1ccc(F)cc1	Proteasome subunit alpha type-2/Proteasome subunit alpha type-6, 20S proteasome (Homo sapiens, UniProt P25787+P60900)	proteolysis, activator, fluorogenic peptide	purified 20S proteasome	up to 30 µM, together with: Suc-LLVY-AMC, Z-LLE-AMC, Boc-LRR-AMC	baseline: vehicle	maximum fold increase	5.5 ± 2.2
COc1ccc(S(=O)(=O)n2nc(OC(=O)c3ccccc3)cc2N)cc1	Genome polyprotein, NS2B-NS3 protease (dengue virus type 2, UniProt P29990)	ESI-TOF MS		concentration not given	baseline: DMSO control	protein mass shift	104 Da
CC(C)C[C@H](NC(=O)CNC(=O)[C@H](CC(C)C)NC(=O)[C@@H]1CCCN1C(=O)CNC(=O)[C@H](Cc1ccccc1)NC(=O)[C@@H](N)Cc1ccccc1)C(=O)N[C@@H](CCCNC(=N)N)C(=O)N[C@@H](CO)C(=O)N[C@@H](CCCCN)C(=O)O	MMP9 (Homo sapiens, UniProt P14780)	substrate, HPLC		500 µM, 72 h, pH 7.5, 37 °C		hydrolysis product	100%
N=C(N)NCCC[C@H](NC(=O)CNC(=O)CNC(=O)[C@H](CCCNC(=N)N)NC(=O)[C@H](Cc1ccc(O)cc1)NC(=O)[C@H](Cc1c[nH]c2ccccc12)NC(=O)[C@H](CCCNC(=N)N)NC(=O)[C@@H](N)Cc1c[nH]c2ccccc12)C(=O)N[C@@H](Cc1ccc(O)cc1)C(=O)N[C@@H](Cc1c[nH]c2ccccc12)C(=O)N[C@@H](CCCNC(=N)N)C(=O)N[C@@H](Cc1c[nH]c2ccccc12)C(N)=O (single isomer, unassigned)	Holliday junction DNA	competition EMSA		together with: salmon sperm DNA	baseline: with over without competitor	KD ratio	~50 fold
Nc1ncnc2c1ncn2[C@@H]1O[C@H](CO)[C@@H](O[C@H]2O[C@H](CO)[C@@H](OP(=O)(O)O)[C@H](OP(=O)(O)O)[C@H]2O)[C@H]1O	Itpr1 (Rattus norvegicus, UniProt P29994)	Ca2+ release	DT40-IP3R1, permeabilized			Hill coefficient	1.3 ± 0.2
CN(C)CCCNC(=N)c1ccc(C(=N)NCCCN(C)C)cc1	T3, RNA repeat	ITC		pH 7.0, 25 °C, NaCl 1 mM		Kd	3.8 µM
CC(C)C[C@H](NC(=O)[C@H](CC(N)=O)NC(=O)[C@H](CCC(=O)O)NC(=O)[C@@H](N)CS)C(=O)O	PPO3 (Agaricus bisporus, UniProt C7FF04)	enzyme activity, inhibitor		12.5 µM		remaining activity	90.5%
Nc1ncnc2c1ccn2[C@@H]1O[C@@H]2COP(=O)(O)O[C@H]3[C@@H](O)[C@H](n4ccc5c(N)ncnc54)O[C@@H]3COP(=O)(O)O[C@H]2[C@H]1O	ydaO riboswitch wild type (Bacillus subtilis)	competition gel-shift		concentration not given	baseline: c-di-AMP	ΔΔG binding	1.5 kcal/mol
CCc1nc2cc3ccccc3cc2cc1C(=O)N[C@@H](CCCCN)C(=O)N[C@@H](C/C=C\C[C@H](NC(=O)[C@H](CCCCN)NC(=O)c1cc2cc3ccccc3cc2nc1CC)C(=O)N1CCC[C@H]1C(=O)NCCCN)C(=O)N1CCC[C@H]1C(=O)NCCCN	(CAG)10 RNA	SPR				residence time	227 s
O=C(NC[C@@H](Cc1ccc(F)cc1)N1CCC(O)(C(F)(F)F)CC1)C1(c2ccc(Cl)cc2)CCCC1	TRPA1 (Homo sapiens, UniProt O75762, M912A)	calcium influx, agonist			baseline: M912A mutant over wild type	EC50 fold change	~25 fold
CSCC[C@H](NC(=O)[C@H](CO)NC(=O)[C@@H](NC(=O)[C@H](CCC(N)=O)NC(=O)[C@@H](CCCNC(=N)N)NC(=O)[C@@H](CCCNC(=N)N)NC(=O)[C@@H](CCCCN)NC(=O)[C@@H](CCCNC(=N)N)NC(C)=O)[C@@H](C)O)C(=O)N[C@H](C(=O)N[C@@H](CC(=O)O)C(=O)N[C@@H](Cc1ccccc1)C(=O)N[C@@H](Cc1ccc(O)cc1)C(=O)N[C@@H](Cc1c[nH]cn1)C(=O)N[C@@H](CO)C(=O)N[C@H](CCCCN)C(=O)N[C@H](CCCNC(=N)N)C(=O)N[C@H](CCCNC(=N)N)C(N)=O)[C@@H](C)O	PCNA (Homo sapiens, UniProt P12004)	binding, isothermal titration calorimetry		pH 7.4, 25 °C, 400 mM NaCl, together with: p21 peptide		entropic term −TΔS	12.9 ± 0.478 kcal/mol
O=c1c2ccccc2n(CC2CC2)c(=O)n1O	Flap endonuclease 1 (Homo sapiens, UniProt P39748)	inhibitor		100 µM, 37 °C, full-length enzyme, together with: double-flap substrate DF1		maximal single-turnover rate	1.52 ± 0.09 min⁻¹
OC1CCCN(CCCNc2cc(-c3ccccc3)nc3ccnn23)C1 (stereo not shown)	DNA dC->dU-editing enzyme APOBEC-3B, C-terminal domain (Homo sapiens, UniProt Q9UH17)	binding, 1H CPMG NMR		20 µM protein		signal attenuation	59% and 58.8%
Cc1cc(N2CC[C@@](C#N)(C3(C)CC3)C2=O)cc(C(=O)NCc2cc(F)cc(-c3cnn(C)c3)c2)n1	Proline--tRNA ligase (Plasmodium falciparum, UniProt Q8I5R7)	thermal shift		together with: L-proline and ATP 2 mM		melting temperature	81.5 °C

Excerpt of the above:
Structure (SMILES)	target	assay	test system	setting	scale	measurement	value
O=c1c2ccccc2n(CC2CC2)c(=O)n1O	Flap endonuclease 1 (Homo sapiens, UniProt P39748)	inhibitor		100 µM, 37 °C, full-length enzyme, together with: double-flap substrate DF1		maximal single-turnover rate	1.52 ± 0.09 min⁻¹
CSCC[C@H](NC(=O)[C@H](CO)NC(=O)[C@@H](NC(=O)[C@H](CCC(N)=O)NC(=O)[C@@H](CCCNC(=N)N)NC(=O)[C@@H](CCCNC(=N)N)NC(=O)[C@@H](CCCCN)NC(=O)[C@@H](CCCNC(=N)N)NC(C)=O)[C@@H](C)O)C(=O)N[C@H](C(=O)N[C@@H](CC(=O)O)C(=O)N[C@@H](Cc1ccccc1)C(=O)N[C@@H](Cc1ccc(O)cc1)C(=O)N[C@@H](Cc1c[nH]cn1)C(=O)N[C@@H](CO)C(=O)N[C@H](CCCCN)C(=O)N[C@H](CCCNC(=N)N)C(=O)N[C@H](CCCNC(=N)N)C(N)=O)[C@@H](C)O	PCNA (Homo sapiens, UniProt P12004)	binding, isothermal titration calorimetry		pH 7.4, 25 °C, 400 mM NaCl, together with: p21 peptide		entropic term −TΔS	12.9 ± 0.478 kcal/mol
CCc1nc2cc3ccccc3cc2cc1C(=O)N[C@@H](CCCCN)C(=O)N[C@@H](C/C=C\C[C@H](NC(=O)[C@H](CCCCN)NC(=O)c1cc2cc3ccccc3cc2nc1CC)C(=O)N1CCC[C@H]1C(=O)NCCCN)C(=O)N1CCC[C@H]1C(=O)NCCCN	(CAG)10 RNA	SPR				residence time	227 s
CC1=CCCN(c2ncc(C(F)F)cn2)C1	DUSP3 (Homo sapiens, UniProt P51452)	ligand-observed 19F NMR		concentration not given, together with: DUSP3 4 or 8 µM		binding	active
